Published values pooled from the literature.
Each numbered part is a random draw from the data of one study; scales do not carry over between parts.
Sequence of UniProt P48729 (whole entry, looked up): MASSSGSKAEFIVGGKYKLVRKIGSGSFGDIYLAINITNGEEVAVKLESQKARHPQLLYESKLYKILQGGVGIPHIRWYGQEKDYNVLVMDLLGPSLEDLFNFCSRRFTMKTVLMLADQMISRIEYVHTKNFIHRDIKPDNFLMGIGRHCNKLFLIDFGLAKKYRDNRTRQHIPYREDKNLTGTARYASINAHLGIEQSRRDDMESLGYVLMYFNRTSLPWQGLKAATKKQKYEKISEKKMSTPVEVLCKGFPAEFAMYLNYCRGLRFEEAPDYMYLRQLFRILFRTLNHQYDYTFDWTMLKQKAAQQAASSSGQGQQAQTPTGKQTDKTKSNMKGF
Sequence of UniProt Q09013 (whole entry, looked up): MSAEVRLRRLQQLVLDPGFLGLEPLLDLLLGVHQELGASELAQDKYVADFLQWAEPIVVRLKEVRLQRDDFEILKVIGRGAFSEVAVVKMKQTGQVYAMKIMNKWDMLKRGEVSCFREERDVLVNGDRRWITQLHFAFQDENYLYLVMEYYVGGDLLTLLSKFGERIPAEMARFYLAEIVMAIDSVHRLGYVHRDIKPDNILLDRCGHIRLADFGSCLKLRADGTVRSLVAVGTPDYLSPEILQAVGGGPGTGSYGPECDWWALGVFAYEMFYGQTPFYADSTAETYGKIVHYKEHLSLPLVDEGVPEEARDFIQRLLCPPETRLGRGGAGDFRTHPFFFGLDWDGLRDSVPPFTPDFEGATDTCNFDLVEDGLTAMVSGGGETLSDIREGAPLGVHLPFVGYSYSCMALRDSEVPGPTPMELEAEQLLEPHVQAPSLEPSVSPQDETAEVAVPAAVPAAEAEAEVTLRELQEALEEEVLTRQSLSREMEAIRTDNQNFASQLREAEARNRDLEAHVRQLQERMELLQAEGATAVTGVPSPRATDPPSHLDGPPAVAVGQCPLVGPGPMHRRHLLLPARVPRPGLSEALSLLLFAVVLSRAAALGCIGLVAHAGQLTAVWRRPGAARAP
Sequence of UniProt Q9BXA6 (whole entry, looked up): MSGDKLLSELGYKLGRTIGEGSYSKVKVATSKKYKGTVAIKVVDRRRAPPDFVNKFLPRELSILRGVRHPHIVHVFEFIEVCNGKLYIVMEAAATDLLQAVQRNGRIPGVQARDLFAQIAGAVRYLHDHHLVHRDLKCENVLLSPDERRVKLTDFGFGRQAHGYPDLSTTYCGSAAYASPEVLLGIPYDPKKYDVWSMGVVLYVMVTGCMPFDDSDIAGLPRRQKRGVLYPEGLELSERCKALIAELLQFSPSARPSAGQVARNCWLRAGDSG
Sequence of UniProt O15530 (whole entry, looked up): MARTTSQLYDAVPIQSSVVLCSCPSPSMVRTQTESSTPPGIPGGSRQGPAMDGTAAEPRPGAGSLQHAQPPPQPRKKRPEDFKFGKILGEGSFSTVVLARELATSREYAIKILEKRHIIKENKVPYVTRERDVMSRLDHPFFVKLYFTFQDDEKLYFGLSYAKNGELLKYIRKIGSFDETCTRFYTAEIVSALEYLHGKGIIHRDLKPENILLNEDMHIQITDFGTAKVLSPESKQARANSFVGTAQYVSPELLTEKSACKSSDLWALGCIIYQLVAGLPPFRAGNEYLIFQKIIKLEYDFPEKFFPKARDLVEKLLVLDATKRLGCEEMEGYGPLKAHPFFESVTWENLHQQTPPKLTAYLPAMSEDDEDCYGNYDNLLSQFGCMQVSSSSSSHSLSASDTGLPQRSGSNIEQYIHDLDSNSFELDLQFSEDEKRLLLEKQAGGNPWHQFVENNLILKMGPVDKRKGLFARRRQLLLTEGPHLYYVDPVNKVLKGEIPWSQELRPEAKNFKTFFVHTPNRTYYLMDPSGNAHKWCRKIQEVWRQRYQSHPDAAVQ
Sequence of UniProt Q8CE90 (whole entry, looked up): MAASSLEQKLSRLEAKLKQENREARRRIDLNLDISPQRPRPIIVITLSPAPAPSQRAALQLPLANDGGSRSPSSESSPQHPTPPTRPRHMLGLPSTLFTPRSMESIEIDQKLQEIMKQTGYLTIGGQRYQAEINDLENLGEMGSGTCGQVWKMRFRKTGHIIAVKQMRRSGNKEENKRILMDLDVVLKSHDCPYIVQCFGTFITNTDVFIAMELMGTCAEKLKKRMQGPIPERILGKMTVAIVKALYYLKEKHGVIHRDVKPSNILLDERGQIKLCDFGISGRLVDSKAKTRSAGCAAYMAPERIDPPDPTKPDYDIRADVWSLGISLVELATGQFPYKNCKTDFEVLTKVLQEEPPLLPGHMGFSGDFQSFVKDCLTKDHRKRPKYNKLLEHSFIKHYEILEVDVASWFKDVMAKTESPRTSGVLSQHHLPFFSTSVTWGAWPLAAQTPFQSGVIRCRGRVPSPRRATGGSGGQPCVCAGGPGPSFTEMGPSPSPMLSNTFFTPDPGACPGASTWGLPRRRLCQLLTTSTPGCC
Sequence of UniProt Q9UF33 (whole entry, looked up): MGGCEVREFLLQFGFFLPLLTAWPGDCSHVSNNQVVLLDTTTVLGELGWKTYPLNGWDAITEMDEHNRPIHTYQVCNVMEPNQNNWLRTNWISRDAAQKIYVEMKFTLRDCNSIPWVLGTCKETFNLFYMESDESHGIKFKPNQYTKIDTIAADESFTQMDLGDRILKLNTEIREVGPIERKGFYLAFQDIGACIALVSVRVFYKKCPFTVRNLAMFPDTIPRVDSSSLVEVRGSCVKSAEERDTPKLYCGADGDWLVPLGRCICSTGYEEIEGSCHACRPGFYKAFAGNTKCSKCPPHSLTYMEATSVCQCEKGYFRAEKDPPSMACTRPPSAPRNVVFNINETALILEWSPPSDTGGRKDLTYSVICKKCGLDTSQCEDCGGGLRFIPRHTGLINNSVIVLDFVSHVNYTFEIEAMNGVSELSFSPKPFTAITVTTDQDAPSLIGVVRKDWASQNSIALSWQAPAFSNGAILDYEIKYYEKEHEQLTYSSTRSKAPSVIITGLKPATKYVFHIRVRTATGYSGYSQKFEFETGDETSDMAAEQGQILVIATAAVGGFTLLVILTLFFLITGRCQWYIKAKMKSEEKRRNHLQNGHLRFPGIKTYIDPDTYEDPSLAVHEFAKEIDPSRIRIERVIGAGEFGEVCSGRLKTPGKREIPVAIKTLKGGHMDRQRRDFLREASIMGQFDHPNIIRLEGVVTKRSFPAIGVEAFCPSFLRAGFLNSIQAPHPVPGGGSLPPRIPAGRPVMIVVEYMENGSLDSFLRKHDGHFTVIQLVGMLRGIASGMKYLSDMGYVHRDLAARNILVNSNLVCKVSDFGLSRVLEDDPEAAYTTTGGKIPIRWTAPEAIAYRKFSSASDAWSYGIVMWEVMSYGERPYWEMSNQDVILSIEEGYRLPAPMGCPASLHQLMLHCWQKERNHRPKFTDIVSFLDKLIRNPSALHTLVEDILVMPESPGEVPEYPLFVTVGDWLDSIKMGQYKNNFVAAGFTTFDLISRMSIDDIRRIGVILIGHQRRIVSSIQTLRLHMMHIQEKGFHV

Series 1
SMILES: Cc1sc(C(=O)NC2COC2)cc1-n1cc(NC(=O)Nc2c(F)cccc2Cl)cn1
Effect on: enzyme activity
Tested at: 10 µM
Endpoint: remaining activity
Myotonin-protein kinase (DMPK, Homo sapiens, UniProt Q09013); reference: untreated control: 94.2%
Ephrin type-A receptor 6 (EPHA6, Homo sapiens, UniProt Q9UF33); reference: untreated control: 78.8%
Testis-specific serine/threonine-protein kinase 6 (TSSK6, Homo sapiens, UniProt Q9BXA6); inhibitor: 94%
3-phosphoinositide-dependent protein kinase 1 (PDPK1, Homo sapiens, UniProt O15530); reference: untreated control: 95.2%
Casein kinase I isoform alpha (CSNK1A1, Homo sapiens, UniProt P48729); reference: untreated control: 80.2%

Series 2
Target: Beta-1 adrenergic receptor (ADRB1, Homo sapiens, UniProt P08588)
Sequence of UniProt P08588 (whole entry, looked up): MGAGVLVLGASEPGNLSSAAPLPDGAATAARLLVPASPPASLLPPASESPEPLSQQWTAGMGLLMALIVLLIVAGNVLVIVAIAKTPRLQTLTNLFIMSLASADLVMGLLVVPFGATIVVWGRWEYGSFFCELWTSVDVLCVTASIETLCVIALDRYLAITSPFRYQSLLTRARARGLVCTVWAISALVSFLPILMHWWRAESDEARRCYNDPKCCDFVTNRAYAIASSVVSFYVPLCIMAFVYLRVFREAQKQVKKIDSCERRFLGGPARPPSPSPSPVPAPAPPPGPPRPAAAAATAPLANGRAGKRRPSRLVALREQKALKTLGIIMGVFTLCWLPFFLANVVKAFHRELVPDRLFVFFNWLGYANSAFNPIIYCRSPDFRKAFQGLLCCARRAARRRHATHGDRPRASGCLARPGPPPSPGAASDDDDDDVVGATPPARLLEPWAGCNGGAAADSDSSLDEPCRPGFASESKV
Mode: antagonist
Endpoint: IC50
O=C(Nc1nnc(-c2ccco2)o1)c1cc(-c2ccccc2)nc2ccccc12: 22.4 µM
Cc1cc(F)ccc1-c1n[nH]c2ncc(-c3cnn(C)c3)nc12: ≥ 100 µM
Cc1cc(C)n(-c2cccc(NC(=O)Cc3noc4ccccc34)c2)n1: ≥ 100 µM
COc1ccccc1N1CCN(C(=O)Cc2cccs2)CC1: ≥ 100 µM
c1ccc2c(c1)OCC(CNCc1cnc(N3CCOCC3)nc1)O2 (centres unmarked): ≥ 100 µM

Series 3
SMILES: COc1cc(C(=O)N2CCC(N3CCN(C)CC3)CC2)ccc1Nc1ncc2c(n1)N(C)c1ccccc1C(=O)N2C
Endpoint: inhibition
HPK1 (human); probe labelling, KiNativ ATP probe; human PBMC lysate; concentration not given, LYS1 labelled site: 5.7%
Dual specificity mitogen-activated protein kinase kinase 7 (Map2k7, Mus musculus, UniProt Q8CE90); probe labelling, KiNativ, refers to: DVkPSNILLDER peptide, Lys2 site; brain tissue lysate (mouse); 0.1 µM, together with: ADP acyl-phosphate probe: 20.4%
eEF2K human; KiNativ profiling; human PBMC lysate; concentration not given, ATP probe, kinase domain site: 7.5%
ILK (mouse); probe labelling, KiNativ, refers to: WQGNDIVVkVLK peptide, LYS1 site; brain tissue lysate (mouse); 1 µM, together with: ADP acyl-phosphate probe: 11.1%
human PBMC; probe labeling, inhibitor, KiNativ profiling, refers to: DIkTLNIFLTK; cell lysate; concentration not given, LYS2 site, together with: ATP acyl-phosphate probe: 2%

Series 4
Target: Histamine H1 receptor (HRH1, Homo sapiens, UniProt P35367)
Sequence of UniProt P35367 (whole entry, looked up): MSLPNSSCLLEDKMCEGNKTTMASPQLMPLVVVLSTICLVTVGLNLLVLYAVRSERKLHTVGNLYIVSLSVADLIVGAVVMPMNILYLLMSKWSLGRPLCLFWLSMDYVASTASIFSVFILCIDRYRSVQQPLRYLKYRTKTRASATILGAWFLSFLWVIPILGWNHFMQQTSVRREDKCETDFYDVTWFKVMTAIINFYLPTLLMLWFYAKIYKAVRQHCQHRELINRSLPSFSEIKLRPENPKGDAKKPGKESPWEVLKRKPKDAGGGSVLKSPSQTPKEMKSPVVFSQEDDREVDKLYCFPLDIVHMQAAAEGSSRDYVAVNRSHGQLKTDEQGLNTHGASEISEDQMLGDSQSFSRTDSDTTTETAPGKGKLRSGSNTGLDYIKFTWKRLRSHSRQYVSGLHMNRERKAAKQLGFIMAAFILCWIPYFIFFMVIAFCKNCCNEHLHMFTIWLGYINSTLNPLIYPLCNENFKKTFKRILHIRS
Effect on: binding
Technique: radioligand binding
Tested at: 10 µM
Endpoint: inhibition
CC(=O)N1CCC(c2ccc(C(=O)NC(=N)N)cc2C(F)(F)F)CC1: 7.6%
CNC(=O)c1ccc(Nc2ncc(C(F)(F)F)c(NCc3nccnc3N(C)S(C)(=O)=O)n2)cc1: -3.38%
C[C@@]1(Cc2ccc(C#N)cc2)C(=O)N(c2cc(Cl)cc(Cl)c2)c2ncc(C(=O)NC3(c4nc(C5CCC5)no4)CC3)n21: 10.3%
O=C([C@H]1C[C@H](O)CN1c1ccc(Cl)cc1)N1CC2COCC(C1)N2Cc1ccc(Cl)cc1: 14.3%
Cc1nc(Cc2cccc(C(F)(F)F)c2)sc1-c1ccc(C(N)=O)nc1: 9.3%
CCOCCn1cc(C(=O)Nc2ccc(-n3nc(-c4cccnc4)cc3C(F)(F)F)cn2)ccc1=O: 12.2%
O=C(Nc1cnc(Oc2ccc(F)cc2)nc1)N1CCc2ncccc2[C@@H]1c1ccc(F)cc1: 5.89%
CCCOc1ccc([C@H]2[C@H](C(=O)O)[C@@H](c3ccc4c(c3)OCO4)CN2CC(=O)Nc2c(CC)cccc2CC)cc1: 36%
CC(=O)Nc1nc(CN2CCC[C@H](Cc3cc(C)nc(C)c3)C2)cs1: 44.2%
CC(=O)Nc1c(F)cc(C(=O)N[C@H]2CC[C@H](O)CC2)cc1O[C@@H](C)c1ccccc1: -10.7%
CN([C@@H]1CCc2c(CC(=O)O)c3cc(S(C)(=O)=O)ccc3n2C1)S(=O)(=O)c1ccc(F)cc1: -9.04%
COc1cc(-c2cn(C3CCc4ccccc4N(CC(F)(F)F)C3=O)nn2)ccc1-n1ccc(C)n1 (centres unmarked): 9.72%
COc1cccc(CNC(=O)c2nc3scc(COCc4ccc(C(=O)O)cc4)c3c(=O)[nH]2)c1: 50.2%
Cc1nc(N2CC[C@@H](O)C2)ncc1-c1cc(C(F)(F)F)cc2[nH]ncc12: 0.239%
O=C(Nc1ccc(-n2nc(-c3cccnc3)cc2C(F)(F)F)cn1)c1ccc(-c2ccccc2)c(F)c1: 3.07%
CN1CCN(C(=O)C(C)(C)c2ccc(C(=O)Nc3cn4cc(-c5ccncc5)ccc4n3)cc2)CC1: 54.9%
COCc1nc2cnc3cc(-c4c(C)noc4C)c(OC[C@H]4CCNC4)cc3c2n1[C@H](C)c1ccccc1: 0.33%
Cc1c(N2CCCC2)nc2ccc(Br)cc2c1C(=O)NC[C@H](CCC(=O)O)c1ccccc1Cl: 4.61%
Nc1c(C(=O)NCc2ccc(C(=O)NCCCC3CCCCC3)cc2)cnn1-c1ccccc1: 14.7%

Series 5
Cell line: HaCaT
Tested at: 100 µM
Time: 60 h
Endpoint: viability
O=c1c(-c2ccc(O[C@@H]3O[C@H](CO)[C@@H](O)[C@H](O)[C@H]3O)cc2)coc2cc(O)cc(O)c12: 153%
CN(C)CCc1c[nH]c2ccc(CS(=O)(=O)N3CCCC3)cc12: 119%
O=C(NC[C@H]1CN(c2ccc(N3CCOCC3=O)cc2)C(=O)O1)c1ccc(Cl)s1: 117%
C[C@H]1CN(C[C@H](Cc2ccccc2)C(=O)NCC(=O)O)CC[C@@]1(C)c1cccc(O)c1: 141%

A few entries again (series 4):
C[C@@]1(Cc2ccc(C#N)cc2)C(=O)N(c2cc(Cl)cc(Cl)c2)c2ncc(C(=O)NC3(c4nc(C5CCC5)no4)CC3)n21: 10.3%
O=C([C@H]1C[C@H](O)CN1c1ccc(Cl)cc1)N1CC2COCC(C1)N2Cc1ccc(Cl)cc1: 14.3%
Cc1nc(Cc2cccc(C(F)(F)F)c2)sc1-c1ccc(C(N)=O)nc1: 9.3%
CCOCCn1cc(C(=O)Nc2ccc(-n3nc(-c4cccnc4)cc3C(F)(F)F)cn2)ccc1=O: 12.2%
O=C(Nc1cnc(Oc2ccc(F)cc2)nc1)N1CCc2ncccc2[C@@H]1c1ccc(F)cc1: 5.89%
